Experimental data collected from several papers.
Lines come from different studies, so protocols differ. Values joined by “and” are separate records of one study, mostly repeats; a detail may differ. Numbers after ± are the reported error.
TRPM8: Transient receptor potential cation channel subfamily M member 8 (TRPM8, Homo sapiens, UniProt Q7Z2W7)
FFAR4: Free fatty acid receptor 4 (FFAR4, Homo sapiens, UniProt Q5NUL3)
NADH dehydrogenase [ubiquinone] iron-sulfur protein 7, mitochondrial/NADH dehydrogenase [ubiquinone] iron-sulfur protein 2, mitochondrial/MT-ND1: NADH dehydrogenase [ubiquinone] iron-sulfur protein 7, mitochondrial/NADH dehydrogenase [ubiquinone] iron-sulfur protein 2, mitochondrial/MT-ND1 (Homo sapiens, UniProt O75251+O75306+P03886)
GAP50: Glideosome-associated protein 50 (GAP50, Plasmodium falciparum, UniProt Q8I2X3)
Maoa: Amine oxidase [flavin-containing] A (Maoa, Rattus norvegicus, UniProt P21396)
T1: ssDNA, aptamer; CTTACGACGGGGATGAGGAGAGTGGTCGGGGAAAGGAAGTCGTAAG

Structure (SMILES)	target	test	system	setting	scale	quantity	value
Nc1ccc(C(=O)O)cc1	BEST1 (Homo sapiens, UniProt O76090)	whole-cell patch clamp	HEK293 transiently expressing channel	concentration not given, membrane potential -60 mV	–	current density	-31.3 pA/pF and -61.4 pA/pF and -55.6 pA/pF and -43.3 pA/pF and -48.3 pA/pF and -30.5 pA/pF and -29.1 pA/pF
c1ccc(C(NCc2cccnc2)(c2ccccc2)c2ccccc2)cc1	Potassium voltage-gated channel subfamily KQT member 1 (KCNQ1, Homo sapiens, UniProt P51787)	whole-cell patch clamp	–	300 pM	–	fast decay time constant	126 ± 15 ms
O=C(CCCc1ccc(-c2ccccc2F)cc1)Nc1ccc(O)cc1	TRPM8	antagonist	HEK293	5 µM	baseline: control	remaining activity	97.8 ± 6.92%
Oc1ccc(/C=C/c2cc(O)cc(O)c2)cc1	O-methyltransferase (Sorghum bicolor, UniProt A0A1B6PFV1)	biolayer interferometry	–	added: saturating SAH	baseline: apo protein	kon fold increase	1.15 fold
CCS(=O)(=O)N1CC(CC#N)(n2cc(-c3ncnc4[nH]ccc34)cn2)C1	Alpha-1-acid glycoprotein 1 (ORM1, Homo sapiens, UniProt P02763)	fluorescence quenching	–	298 K	–	Gibbs free energy	-6.14 kcal/mol
O=C(O)C1CCCNC1 (centres unmarked)	Sodium- and chloride-dependent taurine transporter (SLC6A6, Homo sapiens, UniProt P31641, Y138A)	binding, microscale thermophoresis	–	1.95 µM, room temperature, added: 50 nM labelled protein	higher = more binding	normalised MST signal	0.0508
Fc1ccc(-c2nc3n(c2-c2ccncc2)CCS3)cc1	TRPM8	antagonist	HEK293	5 µM	baseline: control	remaining activity	85.7 ± 10.2%
Cc1cc2c(c(=O)[nH]1)C(=O)O/C2=C\c1ccccc1Cl	Dual specificity calcium/calmodulin-dependent 3',5'-cyclic nucleotide phosphodiesterase 1C, isoform PDE1C2 (PDE1C, Homo sapiens, UniProt Q14123)	enzyme activity, inhibitor	–	added: 3H-cGMP substrate	–	ligand efficiency	0.42
CCCCCCCCN(C)c1cc(=O)[nH]c(=O)[nH]1	FFAR4	agonist, β-arrestin recruitment	CHO cells	10 µM	baseline: 30 µM TUG-891	agonist effect	1%
O=C(COc1cccc(Cl)c1Cl)Nc1cc(C2CCC2)nn1C1CCC(F)(F)CC1	Kir3.1/Kir3.2 (Homo sapiens, UniProt P48051+P48549)	thallium flux, activator	HEK293	–	baseline: standard compound	Emax	30%
NC(=O)NOCCCCCCCCCCCC[P+](c1ccccc1)(c1ccccc1)c1ccccc1.O=C([O-])C(F)(F)F	NADH dehydrogenase [ubiquinone] iron-sulfur protein 7, mitochondrial/NADH dehydrogenase [ubiquinone] iron-sulfur protein 2, mitochondrial/MT-ND1	complex I-dependent respiration, Seahorse XF96	HCT-116	3 µM, 24 h	baseline: control	oxygen consumption rate	4.75 ± 2.2%
CCCCCCN(C)c1cc(=O)[nH]c(=O)[nH]1	FFAR4	antagonist, β-arrestin recruitment	CHO cells	10 µM	–	inhibition	16 ± 13%
CC1=C(/C=C/C(C)=C/C=C/C(C)=C/C=O)C(C)(C)CCC1	Rhodopsin (RHO, Bos taurus, UniProt P02699, L266T)	retinal release, Trp FRET	lipid bicelles	28 °C, L266T mutant	baseline: wild-type rhodopsin	relative koff	1.89 ± 0.03
O=C(Nc1ccccc1-c1nc2c(C(=O)O)cccc2o1)c1ccccc1	GAP50	binding, surface plasmon resonance	–	1:1 binding model	–	kon	234 M⁻¹ s⁻¹
Cc1cccc(COc2ccccc2C(=O)N(CCCN)Cc2cccs2)c1	TRPM8	19F CPMG relaxation dispersion	–	concentration not given, 25 °C, added: saturating ligand	–	exchange rate kex	12000 ± 4000 s⁻¹
O=C(ON1C(=O)CCC1=O)c1cc(C(F)(F)F)cc(C(F)(F)F)c1	CD209 antigen (CD209, Homo sapiens, UniProt Q9NNX6)	binding, grating-coupled interferometry	Man(α1,2)Man-PEG3 chip	–	–	Hill slope	3.7
CC(C)(c1cc(Br)c(OCCO)c(Br)c1)c1cc(Br)c(OCCO)c(Br)c1	Sarcoplasmic/endoplasmic reticulum calcium ATPase 1 (ATP2A1, Oryctolagus cuniculus, UniProt P04191)	ATPase activity	rabbit microsomes	concentration not given, pH 7.3, added: ATP 5 mM	–	SERCA1 inhibition	inactive
NC(=O)NOCCCCCCCCCCCCCCCCCCCC[P+](c1ccccc1)(c1ccccc1)c1ccccc1.O=C([O-])C(F)(F)F	NADH dehydrogenase [ubiquinone] iron-sulfur protein 7, mitochondrial/NADH dehydrogenase [ubiquinone] iron-sulfur protein 2, mitochondrial/MT-ND1	complex I-dependent respiration, Seahorse XF96	HCT-116	20 µM, 24 h	baseline: control	oxygen consumption rate	0 ± 4.42%
O=S(=O)(c1cccc2cnccc12)N1CCCNCC1	TRPM8	antagonist	HEK293	5 µM	baseline: control	remaining activity	105 ± 2.35%
O=c1nc(SCc2cc(F)cc(C(F)(F)F)c2)nc(SCc2csc3ccc(Cl)cc23)[nH]1	DNA topoisomerase 2-beta (TOP2B, Homo sapiens, UniProt Q02880)	decatenation	–	7.8 µM, replicate 2	–	decatenated DNA	73.4%
CCCCCCCC(=O)c1c(O)cc(O)cc1CC(=O)OCC	Nuclear receptor subfamily 4 group A member 2, LBD (Homo sapiens, UniProt P43354)	reporter gene, Gal4 hybrid reporter	–	10 µM	baseline: vehicle	activation	1.11 fold

Structure (SMILES)	target	test	system	setting	scale	quantity	value
COc1ccc(Oc2ccc([C@@H](C)N(C)c3ncc4c(N)nc(N)nc4n3)cc2)cc1	GAP50	binding, surface plasmon resonance	–	1:1 binding model	–	kon	628 M⁻¹ s⁻¹
NCc1ccc(F)cc1	Maoa	substrate	–	pH 7.5, 25 °C	–	kcat of deuterated substrate	0.02 ± 0.00167 s⁻¹
Nc1ncnc2c1ncn2[C@@H]1O[C@H](COP(=O)(O)OP(=O)(O)OP(=O)(O)O)[C@@H](O)[C@H]1O	T1, ssDNA, aptamer	ITC	–	–	–	Kd	746 nM
COc1ccc(CCNc2cc(=O)[nH]c(=O)[nH]2)cc1	FFAR4	agonist, β-arrestin recruitment	CHO cells	10 µM	–	activation	0%
C=CC(=O)N1CCC(COCC(=O)N2CCN(c3nc(-c4cnc(N)nc4C(F)F)nc(N4CCOC[C@@H]4C)n3)CC2)CC1	Serine/threonine-protein kinase N2 (PKN2, Homo sapiens, UniProt Q16513)	KINOMEscan	–	1 µM	–	remaining binding	94%
CCCCCCNc1[nH]c(=O)[nH]c(=O)c1Br	FFAR4	agonist, β-arrestin recruitment	CHO cells	10 µM	baseline: 30 µM TUG-891	agonist effect	0%
Nc1ncnc2c1ncn2[C@@H]1O[C@H](COP(=O)(O)CP(=O)(O)OP(=O)(O)O)[C@@H](O)[C@H]1O	P2X purinoceptor 1 (P2RX1, Homo sapiens, UniProt P51575, E122A)	saturation binding	–	13 nM	–	specific binding	163 corrected cpm and 137 corrected cpm and 124 corrected cpm
CC[C@@H]1[C@H](F)C(=O)N[C@@H]1COc1nccc2cc(C(N)=O)c(OC)cc12	Ribosomal protein S6 kinase alpha-1 (RPS6KA1, Homo sapiens, UniProt Q15418)	ATP probe binding, KiNativ profiling, refers to: domain 2 Lys2 site	THP-1 cell lysate	0.01 mM	–	inhibition	-8.3%
O=C(O)CCCCCNc1cc(=O)[nH]c(=O)[nH]1	FFAR4	β-arrestin recruitment	CHO	10 µM	baseline: 30 µM TUG-891	agonist effect	0%
CNC(=O)[C@@H]1Cc2c([nH]c3cc(Cl)ccc23)C2(CCN(CCc3ccccc3)CC2)N1	GAP50	binding, surface plasmon resonance	–	1:1 binding model	–	koff	0.406 s⁻¹
N=C1NC(=O)C2(CCc3ccc(Br)cc32)C(=O)N1 (centres unmarked)	GABA-A receptor; alpha-1/beta-3/gamma-2 (Homo sapiens, UniProt P14867+P18507+P28472)	–	–	300 µM	–	Emax	3%
O=c1cc(N2CCC(Cc3ccccc3)CC2)[nH]c(=O)[nH]1	FFAR4	agonist, β-arrestin recruitment	CHO cells	10 µM	baseline: 30 µM TUG-891	agonist effect	0 ± 1%
CNC(=O)[C@@]12C[C@@H]1[C@@H](n1cnc3c(NCCc4ccc(O)c(O)c4)nc(C#Cc4ccc(Br)s4)nc31)[C@H](O)[C@@H]2O	Adenosine receptor A3 (Mus musculus, UniProt Q61618)	radioligand binding	HEK293 membranes	–	baseline: mouse A3 over human A3 affinity	selectivity ratio	23 to 25 fold
COc1ccc(CN)cc1	Maoa	substrate	rat	pH 9.0, α,α-protio substrate	–	kcat	0.4667 ± 0.00367 s⁻¹
NCCN(C(=O)c1ccc(Cl)cc1Cl)c1ccc(OCc2ccc(Cl)cc2)cc1	GAP50	binding, surface plasmon resonance	–	1:1 binding model	–	koff	0.0486 s⁻¹
O=c1cc(NCCc2ccc(Cl)cc2)[nH]c(=O)[nH]1	FFAR4	agonist, β-arrestin recruitment	CHO cells	10 µM	–	activation	0%
NC(=O)NOCCCCCCCCCC[P+](c1ccccc1)(c1ccccc1)c1ccccc1.O=C([O-])C(F)(F)F	NADH dehydrogenase [ubiquinone] iron-sulfur protein 7, mitochondrial/NADH dehydrogenase [ubiquinone] iron-sulfur protein 2, mitochondrial/MT-ND1	complex I-dependent respiration, Seahorse XF96	HCT-116	12.5 µM, 24 h	baseline: control	oxygen consumption rate	38.5 ± 4.8%
Cc1nc(CSc2nc(SCc3ccc(C(C)C)cc3)nc(=O)[nH]2)cs1	DNA topoisomerase 2-alpha (TOP2A, Homo sapiens, UniProt P11388)	decatenation	–	31.25 µM, replicate 2	–	decatenated DNA	14%
CCCCCCCCCNc1cc(=O)n(C)c(=O)[nH]1	FFAR4	agonist, β-arrestin recruitment	CHO cells	10 µM	–	activation	0%
Nc1ncnc2c1ncn2[C@@H]1O[C@H](CO[P@](=O)(O)O[P@](=O)(O)O[P@@](=O)(O)S)[C@@H](O)[C@H]1O	GUK1 (Homo sapiens, UniProt Q16774)	ITC	–	molar ratio 2.17	–	ΔH	-0.409 kcal/mol
